Assay results from different studies.
Numbered parts are unrelated; each lists some results of a single study.

Sample 1 — method: protein-binding microarray; molecule type: double-stranded DNA, one strand shown; sample: in vitro; concentration: not given; reading: higher = stronger binding
Target: Hepatocyte nuclear factor 3-beta, forkhead domain (FOXA2, Homo sapiens, UniProt Q9Y261, residues 142-269)
Notes: k-mer, scored over probes, only values ≥0.25
Residues (chain): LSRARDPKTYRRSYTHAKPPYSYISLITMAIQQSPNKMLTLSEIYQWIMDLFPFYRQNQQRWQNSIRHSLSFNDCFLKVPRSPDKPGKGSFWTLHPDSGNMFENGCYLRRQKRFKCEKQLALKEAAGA
| Sequence | E-score |
| --- | --- |
| CACAACAA | 0.283 |
| TGAATACA | 0.268 |
| ACATATAC | 0.408 |
| CTTTAATA | 0.299 |
| GGTATTTA | 0.271 |
| GAAATATA | 0.287 |
| AGATACAT | 0.254 |
| GTTGTGTA | 0.289 |
| GATATATA | 0.375 |

Sample 2 — method: protein-binding microarray; molecule type: double-stranded DNA, one strand shown; sample: in vitro; concentration: 0.8 µM; notes: whole 60-bp probe, no competitor; reading: higher = stronger binding; shared flanks, not repeated: … GTCTTGATTCGCTTGACGCTGCTG
Target: Centromere-binding protein 1, full length, N-terminal tag (CBF1, Saccharomyces cerevisiae, UniProt P17106, residues 1-351)
UniProt P17106, sequence (whole entry, looked up): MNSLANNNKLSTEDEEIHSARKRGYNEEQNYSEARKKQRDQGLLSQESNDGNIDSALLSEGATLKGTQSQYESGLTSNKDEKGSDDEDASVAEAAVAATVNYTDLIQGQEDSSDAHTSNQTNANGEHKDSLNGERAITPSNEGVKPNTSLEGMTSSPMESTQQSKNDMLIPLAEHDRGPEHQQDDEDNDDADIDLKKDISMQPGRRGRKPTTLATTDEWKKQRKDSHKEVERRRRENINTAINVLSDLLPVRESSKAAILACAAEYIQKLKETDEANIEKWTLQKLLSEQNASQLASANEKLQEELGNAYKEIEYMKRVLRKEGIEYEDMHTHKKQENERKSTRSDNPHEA
| Sequence | fluorescence intensity [a.u.] |
| --- | --- |
| CTATAACGTTGCTCTTGCACGTGTATTTCGCTGTTC | 3580 |
| CTATACCGTTCACGCCACCTGACATTATACCACTTC | 1650 |
| GAACTCATCTCGTAGATCACCAGGGCACACAACTAG | 570 |
| GAATTAGCGAGCCAGCACGTTTCCTTCGCGCCGTAG | 566 |
| CTAATAGTACCTTAACACATGACGAAGATGAAATTC | 1310 |
| GAAGATCACGACCCGCGGGTGAGCCCACACTCATAG | 759 |
| GAACGATGACCCTATTGCAGGTGATCCTGATGTTAG | 732 |
| GAATCATATAATCCTTCTGATGTACGGATGTTTTAG | 495 |
| CCTAACTACTATATACACGCGGTATAGCTTCGTACA | 533 |
| CTATGACATTAATCCTACGTGACTTACACATATTTC | 743 |
| CTAAAGCTGCTATTTCAACTGATTATCTGCAGATTC | 544 |
| CTAATTTTCGAGGGTCACGTCGTGACTCATATGTTC | 1670 |
| GAAACAAAAACAAATTACATCAGGAACCTTATTTAG | 529 |

Sample 3 — method: RNA Bind-n-Seq; molecule type: RNA; sample: in vitro; concentration: 200 nM; notes: whole 134-nt RNA, ends assumed; with: 150 mM LiCl; relative to: input library; reading: higher = stronger binding; all molecules: 7-deaza-guanosine replaces G
Target: Ras GTPase-activating protein-binding protein 1, full length (G3BP1, Homo sapiens, UniProt Q13283)
UniProt Q13283, sequence (whole entry, looked up): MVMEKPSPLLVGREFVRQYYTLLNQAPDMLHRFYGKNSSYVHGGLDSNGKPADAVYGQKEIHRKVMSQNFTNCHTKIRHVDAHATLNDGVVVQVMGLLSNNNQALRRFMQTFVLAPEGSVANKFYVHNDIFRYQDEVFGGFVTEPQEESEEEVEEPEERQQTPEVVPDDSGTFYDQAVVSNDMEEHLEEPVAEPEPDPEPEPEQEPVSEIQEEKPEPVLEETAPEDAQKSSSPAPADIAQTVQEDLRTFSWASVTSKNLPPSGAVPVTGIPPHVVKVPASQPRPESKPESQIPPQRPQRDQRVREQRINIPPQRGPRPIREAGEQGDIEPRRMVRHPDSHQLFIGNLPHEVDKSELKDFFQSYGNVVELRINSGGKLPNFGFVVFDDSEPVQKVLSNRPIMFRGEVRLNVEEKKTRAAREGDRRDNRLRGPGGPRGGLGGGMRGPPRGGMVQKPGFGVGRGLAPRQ
Shared flanks, not repeated: GGGAGUUCUACAGUCCGACGAUC … UGGAAUUCUCGGGUGUCAAGG
| Sequence | log2 enrichment |
| --- | --- |
| CUCAAGUCCUGUGCUACACAUCGUAUGUACCGAAUCGGGUGGGAGGGAAAGGGAAAGUAUUAUGUUACGCCGUUCGGAUCUGCACUUCCA | 0.165 |
| CACAGACAACACGGACCCACACAGACACAGAGGGAAGGGGUUGGGAUGGGGACAGGGUGCACAGCAGGGCGGGGUAGGACCCCAGCCCCU | -0.978 |
| CCUGUGCUACACAUCGUAUGUACCGAAUCGGGAAAAAAAGGAAAAAAAGGAAAAAAAGGGGAAAGUAUUAUGUUACGCCGUUCGGAUCUG | 0.115 |
| UAACUUUAGAGGAGGAUCUGAUGGAUAUGGCAGUGGACGUGGAUUUGGCGAUGGCUAUAAUGGGUAUGGAGGAGGACCUGGAGGUGGCAA | -0.00385 |
| UAACUUUAGAGGAGGAUCUGAUGGAUAUGGCAGUGGACGUGGGUUUGGGGAUGGCUAUAAUGGGUAUGGAGGAGGACCUGGAGGUGGCAA | -0.0746 |
| UAACUUUAGAGGAGGAUCUGAUGUAUAUGGCAGUGGACGUGGAUUUGGGGAUGGCUAUAAUGGGUAUGGAGGAGGACCUGGAGGUGGCAA | 0.101 |
| CUGUGCUACACAUCGUAUGUACCGAAUCGGGGAAAAAAAGGAAAAAAAGGAAAAAAAGGGGAAAGUAUUAUGUUACGCCGUUCGGAUCUG | 0.0814 |

Sample 4 — method: RNA Bind-n-Seq; molecule type: RNA; sample: in vitro; concentration: 365 nM; relative to: no-protein control; reading: higher = stronger binding
Target: RNA binding protein fox-1 homolog 2, RRM domain, GST-SBP tag (RBFOX2, Homo sapiens, UniProt O43251-10, residues 100-194)
Notes: natural RNA segment, single round, ends assumed
Shared flanks, not repeated: GGGAGUUCUACAGUCCGACGAUC … UGGAAUUCUCGGGUGCCAA
Residues (chain): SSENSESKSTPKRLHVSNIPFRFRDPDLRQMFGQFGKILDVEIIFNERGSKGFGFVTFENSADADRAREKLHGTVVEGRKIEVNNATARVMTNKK
| Sequence | RBNS enrichment (R) |
| --- | --- |
| UUAAUGCCUUAGCAGAAGAUAAAUCCUACCUAGAGACCUUUGUUCCUUAAAGCAAUAACUGACAACUCUUUGUAGUCCUCCUUGUGGGUAGUUAAGAGUGGGGUCACCCC | 0.28 |
| GUAAGCUCUGUUGUACAGUCUGUCCAAAUGGGUCAAGGUUGCCUUUAGAAGCAAAUAGUGUGAUUUUCAAGACUUCAAAUACAAAUUUAGUUUAAGUGUUUGAACAACUA | 0.403 |
| UUCCUAUGGGUGGUCCAGACAAAAGUAUGUCCUCCUGUAGGACGCUAGAGGGCGCUCUAGGACAGCGUCGGAUCCUGUCUCUGGCAACCCCUUGCAAGCCCACGGGGCUU | 0.306 |
| ACCCUUCCCUUUUAAAGUCCCUGAAUUUUACAGUCUGCUUUCAAAUGAAAUAUUGUACUUUAAUUCAUUCAGGAAGCAAAUUGAGUGCCUAUAAGUGAGACACUGUGCUG | 0.27 |
| ACAAUGUGUGCACAUAGGGAAUGUCCUUUAAGAAUCAUGGAUCUCUUGUAGGCUCUCUGUGUUCCAAUAAUUUUUUGACUAUCAUACCAGGAAAAAACCAACAACUCUAU | 0.787 |
| CCUGGUGACCAGGGCAGUAGGCGUAAUUAAGCAACAAUCGAUCUUCCUUCAGGAGAGCUUGUCACUUCCUUCUUAACGCAGUGGUUCCUAUCUCAGGGAUACUGGACUUG | 0.219 |
| UUUUCAGGCAUGGGGUCAAAGCUAGAGGUAUGGGCCGUCUACACCCCCCCGCCCCCCGGCAUCUAGUGUACCUCACCAGAGGGUAUUCGGAGGCCCAGCAUCCUGCAACC | 0.955 |
| CUCUUAGAACAACACACAGAAGAAUUGGUCCAGUUAAGUGCAUGCAAAAAGCCACCAAAUGAAGGGAUUCUAUCCAGCAAGAUCCUGUCCAAGAGUAGCCUGUGGAAUCU | 17.3 |
| GUUGAUGAUACAUUUGGAAGGAUUUGCUUGUUUAAUAUGUACAUUUUUUGUGUUAACAGCUUUUUGACACAAUUACUGGGUAAUUUCUAAUAUAGGCAGCAGACUGUUUU | 0.717 |
| ACAUUGUUGGUCACCGAGCUAUUUAAGUAGACUGUAUUUCAGCUCUGUCUCUUGUUUAUAUGAAUAAGUUCUCGUCGUUUGUCCUUUAUGUAUUCUUCUCUACCGUAUAA | 1.24 |
| GCACAUGCCAAGGAAGACCCCCUCCUGACCCCUGUUCCGGCUUCAGAAAACCCGUUUAGGGAGAAGAAGUUUUUCUGUGCCAUCCUUUAAGUCUUUGAGAGGGGCCUGAA | 1 |
| CUAUUAAAAUUCUGAUGUUUCUGUGAAAUUCUCAGAGUGUUUAAUUGUACUCAAUGGUAUCAUUACAAUUUUCUGUAAGAGAAAAUAUUACUUAUUUAUCCUAGUAUUCC | 0.525 |

Sample 5 — method: universal PBM; molecule type: double-stranded DNA, one strand shown; sample: in vitro; concentration: 600 nM; reading: higher = stronger binding
Target: Sal-like protein 4, full length isoform A (SALL4, Homo sapiens, UniProt Q9UJQ4, residues 1-1053)
UniProt Q9UJQ4, sequence (whole entry, looked up): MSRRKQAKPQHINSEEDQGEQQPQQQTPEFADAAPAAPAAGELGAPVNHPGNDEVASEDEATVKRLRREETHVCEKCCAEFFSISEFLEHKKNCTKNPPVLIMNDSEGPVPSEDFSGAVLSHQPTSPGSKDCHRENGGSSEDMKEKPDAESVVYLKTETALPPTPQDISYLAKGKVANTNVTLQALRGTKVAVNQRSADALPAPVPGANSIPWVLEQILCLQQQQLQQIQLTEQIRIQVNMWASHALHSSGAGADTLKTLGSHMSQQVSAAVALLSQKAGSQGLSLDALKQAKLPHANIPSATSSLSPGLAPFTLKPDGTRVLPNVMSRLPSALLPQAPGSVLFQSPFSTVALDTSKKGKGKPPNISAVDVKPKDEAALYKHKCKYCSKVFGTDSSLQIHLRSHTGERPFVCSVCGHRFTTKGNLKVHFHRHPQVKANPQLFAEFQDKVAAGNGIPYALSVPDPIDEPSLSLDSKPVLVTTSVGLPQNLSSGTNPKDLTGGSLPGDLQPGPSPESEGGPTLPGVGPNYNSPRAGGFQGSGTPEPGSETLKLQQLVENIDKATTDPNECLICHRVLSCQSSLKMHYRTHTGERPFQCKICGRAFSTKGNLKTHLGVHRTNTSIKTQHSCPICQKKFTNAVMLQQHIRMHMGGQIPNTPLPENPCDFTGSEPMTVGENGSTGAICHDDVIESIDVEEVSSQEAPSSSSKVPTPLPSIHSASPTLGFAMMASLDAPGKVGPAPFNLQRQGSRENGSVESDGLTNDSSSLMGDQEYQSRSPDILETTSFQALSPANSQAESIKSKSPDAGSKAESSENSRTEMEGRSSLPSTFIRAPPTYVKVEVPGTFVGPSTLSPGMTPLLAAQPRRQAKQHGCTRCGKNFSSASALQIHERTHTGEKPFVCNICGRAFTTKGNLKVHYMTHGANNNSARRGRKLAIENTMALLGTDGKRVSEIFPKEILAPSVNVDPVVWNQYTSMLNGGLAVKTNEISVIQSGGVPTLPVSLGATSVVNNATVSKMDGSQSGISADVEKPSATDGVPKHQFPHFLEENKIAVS
Notes: 8-mer, flanks averaged, mean of replicates
| Sequence | E-score |
| --- | --- |
| AAGCAGTG | -0.139 |
| CAGACTGG | -0.179 |
| CCTCCAGC | -0.18 |
| ATAGCGTA | 0.119 |
| AGAGTGCT | 0.0295 |
| CCCGGCAC | -0.399 |
| CCCCCACA | -0.128 |
| CCTGAGGA | -0.0468 |
| GCCCGCCA | -0.298 |
| GAGCGGAC | -0.344 |
| CTGGTGAC | -0.246 |
| AAACCCGC | -0.241 |
| ACGGAGAA | -0.000755 |
| AGTTGAGC | -0.197 |
| CTATTAGA | 0.227 |
| CTCACGGC | -0.285 |
| GAACGCGA | -0.141 |

Sample 6 — method: protein binding microarray; molecule type: double-stranded DNA, one strand shown; sample: in vitro; concentration: not given; relative to: not given; reading: higher = stronger binding
Target: Histone acetyltransferase KAT6A, winged helix 2, GST fusion (KAT6A, Homo sapiens, UniProt Q92794, residues 85-181)
Notes: 8-mer, flanks averaged, mean of 2 arrays, mostly near background
Target sequence (chain): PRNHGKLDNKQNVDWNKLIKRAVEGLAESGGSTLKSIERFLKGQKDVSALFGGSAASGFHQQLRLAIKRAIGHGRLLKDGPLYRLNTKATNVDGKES
| Sequence | E-score |
| --- | --- |
| ACACAAAC | 0.0314 |
| ACATGAAT | -0.192 |
| CATCTAAC | -0.0837 |
| AACAATGA | 0.0467 |
| GCACTAGA | -0.128 |
| GTAATAAC | -0.243 |
| ACCTATTG | -0.221 |
| AAAGGCTC | -0.0229 |
| GACAGGCC | 0.0125 |
| TTCCGGAA | 0.17 |
| CAACGGCA | 0.046 |
| CCATTCCA | 0.0353 |
| AACAGCAA | -0.0125 |
| CCGAGGCC | -0.13 |
| CAACACCA | 0.0242 |

Some of these lines once more (sample 6):
| Sequence | E-score |
| --- | --- |
| TTCCGGAA | 0.17 |
| CAACGGCA | 0.046 |
| CCATTCCA | 0.0353 |
| AACAGCAA | -0.0125 |
